Experimental data gathered from unrelated publications.
± gives the spread as reported. Bridge positions count the residues as written; N and C are the ends. Square brackets hold non-standard residues; d marks the D form. Where no end group is shown, it is not given here. Ends that are not written are not given here. [ ]: non-standard residue; d: D form.
Sequence of UniProt O15392 (whole entry, unmodified, looked up): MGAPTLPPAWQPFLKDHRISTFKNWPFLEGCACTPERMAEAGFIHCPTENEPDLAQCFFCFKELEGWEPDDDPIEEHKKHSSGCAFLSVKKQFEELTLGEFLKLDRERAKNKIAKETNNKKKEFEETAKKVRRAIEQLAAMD
Sequence of UniProt P43403 (whole entry, looked up): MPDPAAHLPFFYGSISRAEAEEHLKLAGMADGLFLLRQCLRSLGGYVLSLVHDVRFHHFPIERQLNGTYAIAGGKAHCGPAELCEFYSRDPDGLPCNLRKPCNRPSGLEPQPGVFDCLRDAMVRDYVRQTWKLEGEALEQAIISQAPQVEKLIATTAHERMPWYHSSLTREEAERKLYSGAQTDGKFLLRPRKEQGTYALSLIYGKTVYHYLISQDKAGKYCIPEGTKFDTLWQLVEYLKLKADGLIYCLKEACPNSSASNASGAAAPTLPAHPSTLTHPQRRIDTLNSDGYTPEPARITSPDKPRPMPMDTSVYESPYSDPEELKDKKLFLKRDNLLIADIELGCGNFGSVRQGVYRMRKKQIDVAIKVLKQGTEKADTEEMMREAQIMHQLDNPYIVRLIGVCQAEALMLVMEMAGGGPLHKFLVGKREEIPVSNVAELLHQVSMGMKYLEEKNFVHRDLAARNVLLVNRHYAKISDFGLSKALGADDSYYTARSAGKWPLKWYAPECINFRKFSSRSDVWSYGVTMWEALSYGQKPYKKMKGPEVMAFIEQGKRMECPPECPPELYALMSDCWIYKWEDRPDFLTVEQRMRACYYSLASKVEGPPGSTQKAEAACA
Sequence of UniProt P24158 (whole entry, looked up): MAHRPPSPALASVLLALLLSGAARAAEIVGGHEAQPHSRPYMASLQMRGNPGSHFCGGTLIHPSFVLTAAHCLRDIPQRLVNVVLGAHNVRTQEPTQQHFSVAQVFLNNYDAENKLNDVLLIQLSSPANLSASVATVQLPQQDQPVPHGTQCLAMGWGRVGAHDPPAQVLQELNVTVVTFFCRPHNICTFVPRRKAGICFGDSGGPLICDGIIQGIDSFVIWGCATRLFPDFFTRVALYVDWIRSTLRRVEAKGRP

Substance	tested on	assay	test system	conditions	how to read	measurement	value
GCVRLHESCLGQQVPCCDPAATCYCYGRGDNDLRCYCR (AgRP variant)	ITGAV/ITGB3 whole, on cells (Homo sapiens)	competition with labeled echistatin, radioligand binding	designed binder, U87MG	3 h, room temperature, with: 125I-echistatin 0.06 nM	–	IC50	20 nM
MoaA peptide (Staphylococcus aureus)	moaA E97A/G340A (Staphylococcus aureus, UniProt P69848)	MoaA/MoaC coupled assay	–	200 µM	baseline: 8-mer peptide, higher = more activity	restored activity	> 5 fold
MENVKKATATTTWMVPTAQ (L3MBTL3 52-70 (Homo sapiens, UniProt Q96JM7-2); sequence looked up)	Rbpj 53-474 E260K (Mus musculus, UniProt P31266)	ITC	peptide	pH 6.5, 25 °C, NaCl 150 mM, one site model	–	Kd	4500 nM
VLRKTRHVNALLFMG (BRAF 504-518 I513A)	BRAF kinase domain with dimer interface	fluorescence titration	peptide	–	–	Kd	2690 ± 350 nM
AR[pT]KQTARKSTGGKA (histone H3 2-16 (UniProt P68431); pT3; pT = C[C@@H](OP(=O)(O)O)[C@H](N)C(=O)O; sequence looked up)	BIRC5 K62A (Homo sapiens, UniProt O15392)	ITC	peptide	pH 7.5, 25 °C, NaCl 100 mM	–	Kd	10200 ± 1000 nM
RmS-3, glycosylated (Rhipicephalus microplus)	PRTN3 (Homo sapiens, UniProt P24158)	chromogenic substrate hydrolysis, inhibitor	–	1 µM	–	protease inhibition	< 20%
VLRKTRAVNILLFMG (BRAF 504-518 H510A)	BRAF kinase domain with dimer interface	fluorescence titration	peptide	–	–	Kd	2700 ± 400 nM
CGNQL[pY]NELNLGRREE (CD247 residues 69-82; phosphotyrosine; pY = N[C@@H](Cc1ccc(OP(=O)(O)O)cc1)C(=O)O)	ZAP70 1-606 (Homo sapiens, UniProt P43403)	competition with labelled peptide, TR-FRET	peptide	–	–	Ki	112000 ± 1500 nM
MLDHILNKFWILHYAGSGSSG (SPAM peptide del2-4; peptide-RNA fusion)	CD274 ectodomain (Homo sapiens)	radioligand binding	peptide	–	baseline: full-length SPAM, higher = more binding	relative binding	< 25%
VLRKTRHVNIALFMG (BRAF 504-518 L514A)	BRAF kinase domain with dimer interface	fluorescence titration	peptide	–	–	Kd	1020 ± 140 nM
GCVRLHESCLGQQVPCCDPAATCYCVERGDGNRRCYCR (AgRP variant)	ITGAV/ITGB3 whole, on cells (Homo sapiens)	competition with labeled echistatin, radioligand binding	designed binder, U87MG	3 h, room temperature, with: 125I-echistatin 0.06 nM	–	IC50	130 nM
AR[pT]KQTARKSTG (H3C1 1-12; pT3; pT = C[C@@H](OP(=O)(O)O)[C@H](N)C(=O)O)	BIRC5 1-142 (Homo sapiens, UniProt O15392)	ITC	peptide	pH 7.2, 25 °C	–	Kd	2310 ± 80 nM
CNCKAPETALCARRCQQH-NH2 (Apamin; disulfide 1-11, 3-15; sequence looked up)	Protein Mdm4, residues 24-108 (MDM4, Homo sapiens, UniProt O15151)	SPR competition	peptide, synthetic MDMX (24-108)	with: immobilized p53 (15-29)	–	Kd	no binding
VLRKTRHVNILLAMG (BRAF 504-518 F516A)	BRAF kinase domain with dimer interface	fluorescence titration	peptide	–	–	Kd	570 ± 80 nM
RmS-17, glycosylated (Rhipicephalus microplus)	F10 factor Xa (Bos taurus)	chromogenic substrate hydrolysis, inhibitor	–	1 µM	–	protease inhibition	< 20%
VLAKTRHVNILLFMG (BRAF 504-518 R506A)	BRAF kinase domain with dimer interface	fluorescence titration	peptide	–	–	Kd	360 ± 30 nM
MDHILNKFWILHYAGSGSSG (SPAM peptide del2-5; peptide-RNA fusion)	CD274 ectodomain (Homo sapiens)	radioligand binding	peptide	–	baseline: full-length SPAM, higher = more binding	relative binding	< 25%
VLRKTRHVNILLFAG (BRAF 504-518 M517A)	BRAF kinase domain with dimer interface	fluorescence titration	peptide	–	–	Kd	540 ± 150 nM
RmS-6, glycosylated (Rhipicephalus microplus)	PLAU (Homo sapiens, UniProt P00749)	chromogenic substrate hydrolysis, inhibitor	–	1 µM	–	protease inhibition	< 20%
